Results from different studies.
Compare with care: the assays were run in different laboratories. ± gives the spread as reported.

COc1ccc(C=C2SC(=N)N(c3ccccc3OC)C2=O)cc1
IC50 (Plasmodium yoelii; 17XL; 384-well): 232 ± 66 nM

OC(CCN1CCCCC1)(c1ccccc1)C1CC2C=CC1C2 (stereo not drawn)
power, delta EEG, O2-Pz (resting-state EEG; healthy elderly humans; oral, 2 mg, eyes closed, LS mean): 8.9 µV²

Nc1ccn([C@@H]2O[C@H](CO)[C@@H](O)C2(F)F)c(=O)n1
viability (HBL-1; 0.5 µM, 120 h): 7.19%

Cn1cc(-c2ccc(-c3cncc(Cl)c3N3CCC4(CCNC4=O)CC3)cc2)cn1
log2 fold change (COLO 205; gene expression, microarray, measured: DLGAP5 mRNA; concentration not given, 6 h; baseline: untreated cells): -2.36

Cc1cc(=O)c(-c2ccc(Oc3cccc(C(F)(F)F)c3)cc2)c(C)[nH]1
IC50 (Plasmodium yoelii; 17XL; 384-well): 1010 ± 63 nM

Oc1ccccc1-c1n[nH]cc1-c1ccnc2ccccc12
log2 fold change (BCK1 (Candida albicans); kinase binding, MIB/MS competition; Candida albicans lysate; 1 µM; baseline: DMSO): 0.05

Cc1[nH]c(C)c(-c2ccc(CCc3ccc(N)cc3)cc2)c(=O)c1Cl
IC50 (Plasmodium yoelii; 17XL; 384-well): 450 ± 27 nM

O=C(CCCCCN1C(=O)c2cccc3cccc(c23)C1=O)NO
viability (HBL-1; 1 µM, 120 h): 26.3%

O=C(Nc1cccc(C2=NCCN2)c1)Nc1cccc(C2=NCCN2)c1
inhibition (Theileria equi; parasite growth, flow cytometry; horse erythrocytes, USDA Florida strain; 0.043 µM, 72 h): 13.5%

Nc1ccccc1NC(=O)CCCCCCC(=O)Nc1ccccc1
viability (HBL-1; 0.5 µM, 120 h): 112%

c1coc(-c2n[nH]cc2-c2ccnc3ccccc23)c1
log2 fold change (GCN2 (Candida albicans); kinase binding, MIB/MS competition; Candida albicans lysate; 1 µM; baseline: DMSO): -0.21

CC(C)NCC(O)c1ccc(O)c(O)c1 (stereo not drawn)
sarcomere length (ventricular cardiomyocytes, C57BL/6 mouse; dose not given, 0.4 s): 1.72 µm

NC(=O)c1cccnc1
viability (HBL-1; 0.1 µM, 120 h): 114%

COc1ccc2c(=O)c(C3CCC(c4ccc(Cl)cc4)CC3)c(C)[nH]c2c1 (stereo not drawn)
IC50 (Plasmodium yoelii; 17XL; 384-well): 400 ± 33 nM

COc1cc2c(NC3CCN(C4CCCCC4)CC3)nc(N3CCCN(C(C)C)CC3)nc2cc1OCCCN1CCCCC1
viability (HBL-1; 1 µM, 120 h): 124%

Cc1cccc2nc(-c3ccc(-c4cccc(CNCCCN5CCCC5=O)c4)cc3)[nH]c12
IC50 (Plasmodium yoelii; 17XL; 384-well): > 20000 nM

COc1ccc(CCc2nc3cc(-c4c(C)noc4C)ccc3n2C[C@H](C)N2CCOCC2)cc1Cl
viability (HBL-1; 0.5 µM, 120 h): 117%

O=C(c1cc(-c2ccco2)[nH]n1)N1CCN(S(=O)(=O)c2ccc(Br)cc2)CC1
IC50 (Plasmodium yoelii; 17XL; 384-well): 280 ± 171 nM
